Experimental data of several laboratories.
Each numbered part is a random draw from the data of one study; scales do not carry over between parts.

Set 1
Target: RNA binding protein fox-1 homolog 2, RRM domain, GST-SBP tag (RBFOX2, Homo sapiens, UniProt O43251-10, residues 100-194)
Technique: RNA Bind-n-Seq
Molecule type: RNA
Sample: in vitro
Concentration: 365 nM
Notes: natural RNA segment, single round, ends assumed
Reference: no-protein control
Direction: higher = stronger binding
Measurement: RBNS enrichment (R)
Residues (chain): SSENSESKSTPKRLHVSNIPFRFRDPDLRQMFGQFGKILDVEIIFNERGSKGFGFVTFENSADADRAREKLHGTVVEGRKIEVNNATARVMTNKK
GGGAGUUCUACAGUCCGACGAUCGCCCGGGCGAGGGCAGAGGACACUGGGAGCAAGGCUUAUGCCCCUGCUGCCCGUCCUGUGCUGGGGGCAUGCUGGGACCAGCCGCACCCAGGCCCCAAUGCUUGUGUGUGUGGAAUUCUCGGGUGCCAA: 0.673
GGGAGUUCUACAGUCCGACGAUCCCUUUCUGUAGGCUAUUUCCUCUUGCCCAGCAGUGGAUGGAGCGUCCUUGCUAAAAAGGGUUCCAUCUCCUUUAAGGACGUUUUAUUUUUGAUCCAGAGUCCUUGUUUCCUGGAAUUCUCGGGUGCCAA: 0.404
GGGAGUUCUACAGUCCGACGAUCGAAGUGACUCUAGUCUUUGUAAGCAAUUUUCAUUCUCAUUAGGAAGUUAAAUGUAGAUUCACAGAUACAUUUACUUUCAGAAUCCUCAAGAGGAUUUCAAAUGCUAACUUUGGAAUUCUCGGGUGCCAA: 0.56
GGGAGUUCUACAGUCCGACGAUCGGUUUAAAAAACGCCAUGUCAUUGAUAACUCCCUUUCUCCCUUCCCUUCUCCCGGUCUGCUGAUCACUCUUUCAUGCCUGUGUAUCCAGGGUGCUCUGUUUCCCCACCGUUGGAAUUCUCGGGUGCCAA: 1.17
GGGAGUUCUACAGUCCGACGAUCAGCCAGUUCUCCAAGUUCUUAACCUGUGGCACUGAAAGGAAUGUUGAGUUACCUCUUCAUGUUUUAGACAGCAAACCCUAUCCAUUAAAGUACUUGUUAGAACACUGAAAUGGAAUUCUCGGGUGCCAA: 0.304
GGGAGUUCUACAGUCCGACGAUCUGUGUUAAAAUGUUCCUGUAAAAGAAACAUUGGUAAAUUUAAAUACAUACUGUUCUAAUUUUGUAUUUUUUAAUUUUUGAAUUUGACAUUGAGUUUAAUUCAGCAACAACUGGAAUUCUCGGGUGCCAA: 0.786
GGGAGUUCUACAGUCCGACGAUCUACUGCUGUUUGACUUUCCCCUUGACAUUUCUCAGAAAAAUGCAGGGCUGCAGCUGAGAGCAGACUGCUGAUUGGUGACUCUGGUCUGCCUAGCUUUUGCAACUCUUUAAUGGAAUUCUCGGGUGCCAA: 0.817
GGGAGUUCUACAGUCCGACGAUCACAUGCAACCCAGUCCCCUCUGACGGCAGAAAUUUGUGACUGAGAUGUGACAUUUGGGAUUCCCCAUCACUUGUCAUGCCCUCAGCACCCAGCUUGUGCCAUUGGGCAUUUGGAAUUCUCGGGUGCCAA: 1.05

Set 2
Target: Prothrombin, mature alpha-thrombin (F2, Homo sapiens, UniProt P00734)
Technique: aptamer microarray, sandwich
Molecule type: DNA with 2'F-ANA
Sample: in vitro
Concentration: 200 nM
Notes: whole 15-mer aptamer, many near background
Together with: Cy3 exosite-II aptamer, 400 nM
Direction: higher = stronger binding
Measurement: mean fluorescence intensity
Sequence: GGTTGGTGTGGTTGG
2'F-ANA at 2 5 7 8 10 11 12 14: 49.7 a.u.
2'F-ANA at 2 3 4 6 7 11 12 13: 429 a.u.
2'F-ANA at 4 9 10 14: 73.7 a.u.
2'F-ANA at 1 3 4 10 12 13: 67.1 a.u.
2'F-ANA at 1 2 3 4 5 6 7 10 12 14: 52.7 a.u.
2'F-ANA at 1 2 5 6 7 8 9 10 12 13 14: 84.4 a.u.
2'F-ANA at 2 4 5 8 9 10 11 12 13 15: 46.7 a.u.
2'F-ANA at 3 7 9 10 11 15: 495 a.u.
2'F-ANA at 1 4 6 9 11 13 15: 74.2 a.u.
2'F-ANA at 1 2 3 4 5 6 8 9 10 11 13 14: 52.1 a.u.
2'F-ANA at 2 6 9 10 14: 88.1 a.u.
2'F-ANA at 2 4 5 7 11 12 14: 76.7 a.u.
2'F-ANA at 2 5 7 10 13 14: 52.4 a.u.
2'F-ANA at 1 2 3 5 7 8 14 15: 47.5 a.u.
2'F-ANA at 3 4 5 6 7 8 9 11 13 14 15: 52.5 a.u.
2'F-ANA at 1 2 3 5 6 7 9 12 14: 46.9 a.u.
2'F-ANA at 4 5 6 7 8 9 10 13 14 15: 47.6 a.u.

Set 3
Target: Histone acetyltransferase KAT6A, winged helix 2, GST fusion (KAT6A, Homo sapiens, UniProt Q92794, residues 85-181)
Technique: protein binding microarray
Molecule type: double-stranded DNA, one strand shown
Sample: in vitro
Concentration: not given
Notes: 8-mer, flanks averaged, mean of 2 arrays, mostly near background
Reference: not given
Direction: higher = stronger binding
Measurement: E-score
Target sequence (chain): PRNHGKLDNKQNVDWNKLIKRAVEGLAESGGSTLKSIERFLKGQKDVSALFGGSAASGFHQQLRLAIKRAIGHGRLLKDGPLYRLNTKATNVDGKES
AACTAAGC: 0.122
GATACTTA: -0.0102
AACCAAAT: -0.00799
ACCGAGTC: -0.00784
AAGCGTGC: 0.0348
AGGTAGAT: -0.0151
ACTCAACC: 0.0421
AGGAGACT: -0.107
AATTTGGC: -0.0616
GGAATGTA: 0.0308
ACTTAACA: 0.0855
GTATGGCA: 0.0297
ATGCTAGC: 0.0514
ATCGATAG: -0.0153
AGCCAAAG: 0.128
ACGTACTG: -0.175
GGCCTCGA: 0.0129
CAACAGAA: 0.00615
ACTGCTAG: -0.0545
GATAGCAA: 0.0985
CATAGATG: -0.0771
GATACTGA: -0.044
CGGTACCG: 0.245
ACTTTCGA: -0.0765
GTTGCCGA: 0.028

Set 4
Target: RING finger protein unkempt homolog, zinc fingers 1-6, GST-SBP tag (UNK, Homo sapiens, UniProt Q9C0B0, residues 30-357)
Sequence of UniProt Q9C0B0 (30-357, looked up): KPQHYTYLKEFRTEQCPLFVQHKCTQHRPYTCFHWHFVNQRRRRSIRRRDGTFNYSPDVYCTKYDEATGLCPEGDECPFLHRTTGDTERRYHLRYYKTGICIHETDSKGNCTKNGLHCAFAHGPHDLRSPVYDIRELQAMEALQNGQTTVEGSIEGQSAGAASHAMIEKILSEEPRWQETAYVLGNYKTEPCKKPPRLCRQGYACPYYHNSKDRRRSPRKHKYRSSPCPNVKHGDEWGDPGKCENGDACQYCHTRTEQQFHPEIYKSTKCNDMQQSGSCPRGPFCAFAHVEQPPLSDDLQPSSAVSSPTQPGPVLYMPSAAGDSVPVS
Technique: RNA Bind-n-Seq
Molecule type: RNA
Sample: in vitro
Concentration: not given
Notes: RNA with constant flanks, human and mouse sites, ends assumed
Reference: input RNA pool
Direction: higher = stronger binding
Measurement: bound/input enrichment
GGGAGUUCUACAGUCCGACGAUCAAGUCUAAUAAAUGGAAGGAAUGUGGCAAAAUGAUUCAUGAAUCCUCCAAAAGUACACCUUAUCAAACCAACAACAGAGAUGCCUCCAUUGAAUCAUCAAACAGACACAAAACUGAGAAUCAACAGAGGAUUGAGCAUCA: 0.142 ratio
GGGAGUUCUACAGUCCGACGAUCAUCUUAUUACAGGGACUUGCUGUGCUUGCCAAGGAAAGACCACCAAAUCCCAUCGAGUUCCUAGCAUCUUAUCUUUUAAAAAACAAGGCGCAGUUUGAAGAUCGAAAUUGAUUUCUUGGGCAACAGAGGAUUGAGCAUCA: 0.342 ratio
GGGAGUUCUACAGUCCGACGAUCCCCAGUCCCCAUUACUUAUUUGCACACUUGUUUUAACUGACUUCCUGUUUUGAUAUUUAUCACCAAGACCAUAAACUCAUCAAUAUGAAUUUUCUUGAUGUAUACUCACGACUGUCUUUGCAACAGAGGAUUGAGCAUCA: 0.602 ratio
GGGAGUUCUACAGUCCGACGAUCAAUGCAUCUCUUCAAGACCAUAUUUACCCGAGCUGUUUUGGGAACACUCCAGACUGGAAUAGUUCUAAAUUUAUAAGUCUUUGGGAAUCAGAAAUGAUGAAUGAUAAGAACUGGAACCCUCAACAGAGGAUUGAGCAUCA: 0.151 ratio
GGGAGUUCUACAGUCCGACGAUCAGGUGCAAAGAAAAAGACUUGGAUGAUACCUGCAUGCUGCAUAAGAAGUCAGAAAGCCCAUUUAGAGAAACAGAACCUCUGGUGUCACCACACCAAGAUAAACUCAUGUCUAUGCCAGUUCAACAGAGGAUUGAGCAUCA: 0.878 ratio
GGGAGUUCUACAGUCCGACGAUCCUCACGGAACAUAACAUCUGUGAAAUCAAUGGACAGAAUGUCAUUGGAUUGAAGGACUCUCAAAUUGCAGACAUACUGUCAACAUCUGGGACUGUAGUUACUAUUACAAUCAUGCCUGCUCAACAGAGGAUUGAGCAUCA: 0.522 ratio
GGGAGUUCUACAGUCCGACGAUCAAAAACAGGGGUGAGAUAAAGGUCAAUAUUCAGUUUAUGAGGAACAAUAUGACCGCAAGUAUGUUUGACUUAUCAAUGAAGGACAAAACCAGAUCUCCUUUUGCAAAGUUAAAAGAUAAGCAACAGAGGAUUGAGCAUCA: 0.278 ratio
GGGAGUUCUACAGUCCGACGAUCGAAGAAAAUGGCGAGGACAGAGAUACAGCAAGUGAAAAAGAAUUAAAUGGAGAUUCUGAUUUAGAUCCUGAAAAUGAAAGUGAAGAAGAAUGAAGACAGCAAAGCAAGCCGGUCAAACUACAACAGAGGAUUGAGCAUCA: 0.531 ratio
